Measurements pooled from the literature.
Compare with care: the assays were run in different laboratories. ± gives the spread as reported.

| SMILES | target | test | system | setting | how to read | endpoint | result |
| --- | --- | --- | --- | --- | --- | --- | --- |
| Cc1nc(C)c(C=[N+]([O-])C(C)(C)C)nc1C | mitochondrial complex I, rat |  | cerebellar granule neurons, rat | 100 µM, together with: MPP+ |  | complex I activity increase | 35.6% |
| O=C(c1ccc(F)cc1)N1CCCC(c2nc(-c3cccnc3)no2)C1 (stereo not drawn) | mGluR5 | calcium fluorescence, positive allosteric modulator | mGluR5-expressing cells | together with: glutamate EC20 | relative to: maximal glutamate response | Emax | 82 ± 7% |
| CC[C@H](C)[C@H](NC(=O)[C@H](CC(C)C)NC(=O)[C@H](CCCCN)NC(=O)[C@@H](N)CCCCN)C(=O)N[C@H](C(=O)N[C@@H](Cc1ccccc1)C(=O)N[C@H](C(=O)N1CCC[C@H]1C(=O)N[C@@H](CCCCN)C(=O)N[C@@H](CCCCN)C(=O)N[C@H](C(=O)N[C@@H](CCCNC(=N)N)C(=O)N[C@@H](CCC(=O)O)C(=O)N[C@@H](CCCCN)C(=O)N[C@@H](CCCCN)C(=O)N[C@@H](CCCCN)C(=O)N[C@@H](CCC(=O)O)C(=O)N[C@@H](CS)C(=O)N[C@@H](CC(C)C)C(=O)N[C@H](C(=O)O)C(C)C)[C@@H](C)O)[C@@H](C)CC)[C@@H](C)O | voltage-gated sodium channel | resurgent sodium current, kinetic model fit | mouse CA3 neurons | 200 µM, membrane potential -10 mV |  | rate constant kOI | 109 s⁻¹ |
| C[C@]12CC[C@@H]3c4ccc(OCC(=O)N[C@@H](CCCCNC(=O)CN5CCN(CC(=O)[O-])CCN(CC(=O)[O-])CCN(CC(=O)[O-])CC5)C(=O)O)cc4CC[C@H]3[C@@H]1CCC2=O.[68Ga+3] | estrogen receptor |  | nude mice, MCF7 xenograft, tumour | dose not given, 2.5 h post-injection, together with: estradiol 200 µg co-injected | relative to: unblocked | uptake reduction by blocking | ~62% |
| Cc1ccc(-n2nc(C3CC3)nc2C2CCCN(C(N)=O)C2)cc1C (stereo not drawn) | recombinant aromatase CYP19 | absorption spectroscopy |  | 100 µM, no androstenedione |  | Soret peak wavelength | 420 nm |
| CC(C)C[C@H](NC(=O)[C@@H]1CCC(=O)N1)C(=O)N[C@H](C(=O)N[C@@H](Cc1ccccc1)C(=O)N[C@H](C(=O)N[C@@H](CO)C(=O)N[C@@H](CO)C(=O)N[C@@H](Cc1c[nH]c2ccccc12)C(=O)NCC(N)=O)[C@@H](C)O)[C@@H](C)O | AKHR Bombyx mori EGFP | agonist | HEK293 stable AKHR-EGFP | 10 nM, 37 °C |  | time to maximum internalization | ≤ 30 min |
| COc1cc(/C=C/c2cc(C)n[nH]2)ccc1O | glutathione peroxidase | enzyme activity | MCF7 | 25 µM, 48 h |  | inhibition | 40% |
| Cc1sc2ncn(CC(=O)N3CCCC3)c(=O)c2c1-c1cccc(Br)c1 | NMDA receptor, mouse | single-channel current, outside-out patch | cortical neurons | 50 µM, together with: Ca2+ 1.25 mM |  | γ2 conductance level area | 38% |
| O=c1c2sccc2n(CC2COc3ccccc3O2)c(=O)n1O (stereo not drawn) | Kluyveromyces lactis XRN1 | inhibitor |  | 100 µM, 37 °C, together with: RNA:DNA duplex 500 nM |  | inhibition | no effect |
| CC[C@H](C)[C@H](NC(=O)[C@H](Cc1ccccc1)NC(=O)[C@@H](NC(=O)[C@@H](NC(=O)[C@H](CC(C)C)NC(=O)[C@H](CCCCN)NC(=O)[C@@H](N)CCCCN)[C@@H](C)CC)[C@@H](C)O)C(=O)N[C@@H](CC(C)C)C(=O)N[C@@H](CCCNC(=N)N)C(=O)N[C@@H](CCCNC(=N)N)C(=O)N[C@H](C(=O)N[C@@H](CCCNC(=N)N)C(=O)N[C@@H](CCC(=O)O)C(=O)N[C@@H](CCCCN)C(=O)N[C@@H](CCCCN)C(=O)N[C@@H](CCCCN)C(=O)N[C@@H](CCC(=O)O)C(=O)N[C@@H](CS)C(=O)N[C@@H](CC(C)C)C(=O)N[C@H](C(=O)O)C(C)C)[C@@H](C)O | voltage-gated sodium channel | resurgent sodium current, kinetic model fit | mouse CA3 neurons | 200 µM, membrane potential -30 mV |  | rate constant kOB | 265 s⁻¹ |
| O=C(O)c1ccc(/C=C2\SC(=S)N(Cc3cccc(C(F)(F)F)c3)C2=O)cc1 | NLRP3 Walker B mutant | biotin pull-down | HEK-293T lysate | concentration not given | relative to: wild type | NLRP3 binding | no effect |
| Cn1c(=O)oc2ccc(-c3ccc(CC(C#N)NC(=O)C4CNCCCO4)c(F)c3)cc21 (stereo not drawn) | neutrophil elastase (human) | enzyme activity, inhibitor | human, whole blood | 40 mg once daily, day 31 after discontinuation, neutrophil count-normalized |  | inhibition | 65.4% |

A few entries again:
| SMILES | target | test | system | setting | how to read | endpoint | result |
| --- | --- | --- | --- | --- | --- | --- | --- |
| Cc1sc2ncn(CC(=O)N3CCCC3)c(=O)c2c1-c1cccc(Br)c1 | NMDA receptor, mouse | single-channel current, outside-out patch | cortical neurons | 50 µM, together with: Ca2+ 1.25 mM |  | γ2 conductance level area | 38% |
